Measurements from different studies.
Each line is one published result; not all experiments were run side by side.
Tumor necrosis factor receptor superfamily member 9/Nectin-4: Tumor necrosis factor receptor superfamily member 9/Nectin-4 (Homo sapiens, UniProt Q07011+Q96NY8)
Chain of UniProt Q07011 (whole entry, looked up): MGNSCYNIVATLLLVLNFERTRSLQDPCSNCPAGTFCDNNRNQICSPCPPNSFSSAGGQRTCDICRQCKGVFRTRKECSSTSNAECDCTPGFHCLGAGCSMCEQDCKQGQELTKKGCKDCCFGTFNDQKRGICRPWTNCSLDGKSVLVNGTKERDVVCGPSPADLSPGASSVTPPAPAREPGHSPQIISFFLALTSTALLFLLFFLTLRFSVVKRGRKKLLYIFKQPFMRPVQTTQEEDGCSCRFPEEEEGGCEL
Chain of UniProt Q96NY8 (whole entry, looked up): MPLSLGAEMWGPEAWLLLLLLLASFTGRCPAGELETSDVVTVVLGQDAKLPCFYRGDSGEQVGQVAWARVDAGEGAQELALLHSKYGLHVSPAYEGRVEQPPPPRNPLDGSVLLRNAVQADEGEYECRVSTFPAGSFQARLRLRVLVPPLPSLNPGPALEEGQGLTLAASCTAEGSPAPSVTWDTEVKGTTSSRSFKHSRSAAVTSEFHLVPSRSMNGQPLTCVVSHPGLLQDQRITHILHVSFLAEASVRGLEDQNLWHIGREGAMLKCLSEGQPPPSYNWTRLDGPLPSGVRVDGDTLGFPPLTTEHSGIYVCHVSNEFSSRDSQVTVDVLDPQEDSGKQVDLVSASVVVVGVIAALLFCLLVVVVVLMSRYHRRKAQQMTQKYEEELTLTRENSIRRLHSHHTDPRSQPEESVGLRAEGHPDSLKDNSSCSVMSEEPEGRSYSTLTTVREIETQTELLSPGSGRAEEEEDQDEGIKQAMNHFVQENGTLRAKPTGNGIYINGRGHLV
ABCG2: Broad substrate specificity ATP-binding cassette transporter ABCG2 (ABCG2, Homo sapiens, UniProt Q9UNQ0)
Chain of UniProt Q9UNQ0 (whole entry, looked up): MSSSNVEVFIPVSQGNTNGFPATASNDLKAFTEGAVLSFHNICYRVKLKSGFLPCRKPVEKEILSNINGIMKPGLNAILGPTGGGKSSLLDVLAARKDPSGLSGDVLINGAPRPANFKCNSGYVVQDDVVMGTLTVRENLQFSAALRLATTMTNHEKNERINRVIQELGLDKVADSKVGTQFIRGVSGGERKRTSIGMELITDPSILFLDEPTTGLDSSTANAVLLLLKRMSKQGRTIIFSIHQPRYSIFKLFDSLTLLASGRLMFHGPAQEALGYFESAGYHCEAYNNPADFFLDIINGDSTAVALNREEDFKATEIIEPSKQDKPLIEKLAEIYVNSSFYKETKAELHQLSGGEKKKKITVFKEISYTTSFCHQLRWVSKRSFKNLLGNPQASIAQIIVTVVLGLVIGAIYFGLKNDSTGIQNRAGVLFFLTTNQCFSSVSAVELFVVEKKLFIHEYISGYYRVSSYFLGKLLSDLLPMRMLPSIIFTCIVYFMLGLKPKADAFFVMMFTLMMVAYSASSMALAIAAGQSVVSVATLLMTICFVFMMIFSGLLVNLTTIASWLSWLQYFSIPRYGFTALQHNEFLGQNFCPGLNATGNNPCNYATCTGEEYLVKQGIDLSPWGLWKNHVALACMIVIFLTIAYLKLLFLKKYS
Chain of UniProt P33261 (whole entry, looked up): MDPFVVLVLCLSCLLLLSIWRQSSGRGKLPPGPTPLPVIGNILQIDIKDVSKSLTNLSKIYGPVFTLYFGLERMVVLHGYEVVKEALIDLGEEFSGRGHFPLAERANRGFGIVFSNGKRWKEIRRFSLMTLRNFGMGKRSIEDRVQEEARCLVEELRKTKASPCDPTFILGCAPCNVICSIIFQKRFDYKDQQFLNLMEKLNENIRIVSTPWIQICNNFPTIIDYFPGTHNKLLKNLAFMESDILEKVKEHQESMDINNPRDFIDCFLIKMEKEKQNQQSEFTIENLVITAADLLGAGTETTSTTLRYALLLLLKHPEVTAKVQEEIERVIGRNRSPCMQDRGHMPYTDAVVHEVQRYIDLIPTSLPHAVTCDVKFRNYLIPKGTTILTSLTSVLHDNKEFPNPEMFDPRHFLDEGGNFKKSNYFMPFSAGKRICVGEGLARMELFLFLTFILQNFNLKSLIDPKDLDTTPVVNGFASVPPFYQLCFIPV
Chain of UniProt O60674 (whole entry, looked up): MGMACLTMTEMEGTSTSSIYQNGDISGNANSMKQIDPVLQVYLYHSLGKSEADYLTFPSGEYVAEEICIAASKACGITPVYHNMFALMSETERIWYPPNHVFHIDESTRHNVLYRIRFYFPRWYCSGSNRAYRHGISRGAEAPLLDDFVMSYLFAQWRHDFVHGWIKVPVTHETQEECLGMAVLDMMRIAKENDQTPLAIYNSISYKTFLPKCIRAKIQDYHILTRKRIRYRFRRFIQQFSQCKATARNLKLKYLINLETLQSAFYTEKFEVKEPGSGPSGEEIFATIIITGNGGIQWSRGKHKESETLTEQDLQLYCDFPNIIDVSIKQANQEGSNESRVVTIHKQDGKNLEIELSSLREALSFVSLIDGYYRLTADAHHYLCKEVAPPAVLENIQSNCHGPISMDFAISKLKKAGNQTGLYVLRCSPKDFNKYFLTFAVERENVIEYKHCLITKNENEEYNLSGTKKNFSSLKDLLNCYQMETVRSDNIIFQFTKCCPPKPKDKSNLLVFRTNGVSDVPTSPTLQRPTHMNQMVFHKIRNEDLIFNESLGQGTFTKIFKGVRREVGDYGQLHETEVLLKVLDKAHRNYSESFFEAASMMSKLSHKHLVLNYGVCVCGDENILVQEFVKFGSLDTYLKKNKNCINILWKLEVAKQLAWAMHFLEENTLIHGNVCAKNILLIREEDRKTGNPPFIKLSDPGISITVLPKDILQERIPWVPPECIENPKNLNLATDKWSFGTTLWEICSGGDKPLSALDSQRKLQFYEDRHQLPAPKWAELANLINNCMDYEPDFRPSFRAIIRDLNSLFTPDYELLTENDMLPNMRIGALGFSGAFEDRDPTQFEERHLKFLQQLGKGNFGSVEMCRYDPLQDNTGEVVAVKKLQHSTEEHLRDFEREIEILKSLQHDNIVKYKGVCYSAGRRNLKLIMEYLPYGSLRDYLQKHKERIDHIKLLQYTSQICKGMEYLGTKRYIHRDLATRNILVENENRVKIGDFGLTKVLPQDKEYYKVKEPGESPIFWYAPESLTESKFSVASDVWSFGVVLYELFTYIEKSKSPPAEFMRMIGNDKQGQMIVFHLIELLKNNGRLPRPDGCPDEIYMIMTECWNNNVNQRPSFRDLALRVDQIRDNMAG
Chain of UniProt Q86VL8 (whole entry, looked up): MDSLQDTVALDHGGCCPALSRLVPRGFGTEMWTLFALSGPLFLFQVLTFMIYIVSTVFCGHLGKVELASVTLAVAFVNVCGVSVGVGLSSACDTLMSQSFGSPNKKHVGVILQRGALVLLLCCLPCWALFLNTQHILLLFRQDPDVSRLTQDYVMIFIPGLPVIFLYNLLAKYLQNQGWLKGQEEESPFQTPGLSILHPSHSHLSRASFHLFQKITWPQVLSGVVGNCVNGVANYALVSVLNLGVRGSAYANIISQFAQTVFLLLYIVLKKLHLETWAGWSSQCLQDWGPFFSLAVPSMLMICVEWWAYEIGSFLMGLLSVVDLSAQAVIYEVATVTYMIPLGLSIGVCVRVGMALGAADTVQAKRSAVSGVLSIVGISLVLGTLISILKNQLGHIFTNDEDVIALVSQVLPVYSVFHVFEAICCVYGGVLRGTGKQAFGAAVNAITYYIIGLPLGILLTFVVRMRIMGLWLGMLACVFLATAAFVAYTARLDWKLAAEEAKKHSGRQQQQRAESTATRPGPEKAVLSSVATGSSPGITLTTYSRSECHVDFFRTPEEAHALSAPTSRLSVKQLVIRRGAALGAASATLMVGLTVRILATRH
Chain of UniProt Q05421 (whole entry, looked up): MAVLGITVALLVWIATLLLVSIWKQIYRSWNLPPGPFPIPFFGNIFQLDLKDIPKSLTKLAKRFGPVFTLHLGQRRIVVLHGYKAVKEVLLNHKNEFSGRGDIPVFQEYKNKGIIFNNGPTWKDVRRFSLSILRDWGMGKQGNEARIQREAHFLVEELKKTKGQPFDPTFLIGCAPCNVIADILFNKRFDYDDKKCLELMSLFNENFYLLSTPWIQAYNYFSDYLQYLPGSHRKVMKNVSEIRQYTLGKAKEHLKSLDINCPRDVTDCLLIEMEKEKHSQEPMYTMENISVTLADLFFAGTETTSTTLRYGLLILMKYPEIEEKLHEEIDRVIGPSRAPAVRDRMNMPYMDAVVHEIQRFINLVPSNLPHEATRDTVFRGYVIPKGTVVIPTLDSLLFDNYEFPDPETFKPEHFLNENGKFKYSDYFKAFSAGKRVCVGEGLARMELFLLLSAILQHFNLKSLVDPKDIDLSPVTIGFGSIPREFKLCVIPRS

COCCCNC(=O)C1CCN(Cc2cc3ccccc3n2Cc2cccc(Cl)c2)CC1 — maximum response (Vero-E6; CellTiter-Glo ATP; 72 h, second round 5-point; baseline: DMSO 0%, hyamine -100%, more negative, more toxic): -9.91%
CCCC[C@@H]1NC(=O)[C@H](Cc2ccc(O)cc2)NC(=O)[C@@H]2CCCN2C(=O)[C@H](CC(=O)O)NC(=O)[C@H](C)NC(=O)[C@H](Cc2ccccc2)NC(=O)[C@@H]2CSCCC(=O)N3CN(CN(C3)C(=O)CCSC[C@H](NC(C)=O)C(=O)N[C@@H](CC(C)(C)C)C(=O)N[C@@H](CCC(=O)O)C(=O)N[C@@H](CCC(=O)O)C(=O)N[C@H](CCCCNC(=O)CCc3cn(CCOCCOCCOCCN(CCOCCOCCOCCC(=O)N[C@H]4CSCCC(=O)N5CN6CN(C5)C(=O)CCSC[C@H](NC(=O)[C@@H](CC(=O)O)NC(=O)[C@H](Cc5cccc7ccccc57)NC(=O)[C@@H]5CCCN5C4=O)C(=O)N[C@@H](CCSC)C(=O)N[C@@H](CCCCNC(=N)N)C(=O)N[C@@H](CC(=O)O)C(=O)N[C@@H](Cc4c[nH]c5ccccc45)C(=O)N[C@@H](CO)C(=O)N[C@@H]([C@@H](C)O)C(=O)N4CCC[C@H]4C(=O)N4C[C@H](O)C[C@H]4C(=O)N[C@@H](Cc4c[nH]c5ccccc45)C(=O)N[C@H](C(N)=O)CSCCC6=O)CCOCCOCCOCCn4cc(CCC(=O)NCCCC[C@H]5NC(=O)[C@H](CCC(=O)O)NC(=O)[C@H](CCC(=O)O)NC(=O)[C@H](CC(C)(C)C)NC(=O)[C@@H](NC(C)=O)CSCCC(=O)N6CN7CN(C6)C(=O)CCSC[C@H](NC(=O)[C@H](Cc6ccc(O)cc6)NC(=O)[C@@H]6CCCN6C5=O)C(=O)N[C@@H](Cc5ccccc5)C(=O)N[C@@H](C)C(=O)N[C@@H](CC(=O)O)C(=O)N5CCC[C@H]5C(=O)N[C@@H](Cc5ccc(O)cc5)C(=O)N[C@@H](CCCC)C(=O)N[C@H](C(N)=O)CSCCC7=O)nn4)nn3)C(=O)N3CCC[C@H]3C(=O)N[C@@H](Cc3ccc(O)cc3)C(=O)N2)C(=O)CCSC[C@@H](C(N)=O)NC1=O — Emax (Tumor necrosis factor receptor superfamily member 9/Nectin-4; reporter gene, agonist, luciferase reporter; CD137 Jurkat reporter with HT-1376; 6 h, geometric mean; baseline: wells without compound): 63 fold
CC(C)CN(C[C@@H](O)[C@H](Cc1ccccc1)NC(=O)O[C@H]1CO[C@H]2OCC[C@H]21)S(=O)(=O)c1ccc(N)cc1 — inhibition (ABCG2; transport, inhibitor; 100 µM, 5 (unit not given), pH 7, with: CCK-8): 49.3%
C[C@H]1CN(c2n[nH]c3nc(N[C@H]4CC[C@H](NS(=O)(=O)CCC(F)(F)F)CC4)ncc23)CCO1 — relative abundance (Tyrosine-protein kinase JAK2 (JAK2, Homo sapiens, UniProt O60674); inhibitor, Kinobeads competition profiling; 0.8 µM; baseline: vehicle): 1.1
CC1(C)[C@H](C(=O)O[C@H](C#N)c2cccc(Oc3ccccc3)c2)[C@@H]1C=C(Br)Br — enzyme contribution (CES2 human cytosolic; 0.1 µM, age 5 years): 0.36%
Cc1cc2c(F)c(Oc3ncnn4cc(OC[C@@H](C)O)c(C)c34)ccc2[nH]1 — inhibition (ABCG2; inhibitor; concentration not given, 1 h): 68%
CCCC[C@@H]1NC(=O)[C@H](Cc2ccc(O)cc2)NC(=O)[C@@H]2CCCN2C(=O)[C@H](CC(=O)O)NC(=O)[C@H](C)NC(=O)[C@H](Cc2ccccc2)NC(=O)[C@@H]2CSCCC(=O)N3CN(CN(C3)C(=O)CCSC[C@@H](C(=O)N[C@@H](C)C(N)=O)NC1=O)C(=O)CCSC[C@H](NC(C)=O)C(=O)N[C@@H](CC(C)(C)C)C(=O)N1CCC[C@H]1C(=O)N[C@@H](CCC(=O)O)C(=O)N[C@H](CCCCNC(=O)CCc1cn(CCOCCOCCCOCCOCCOCCOCCOCCOCCOCCOCCNC(=O)CCOCC(COCCC(=O)NCCOCCOCCOCCOCCOCCOCCOCCOCCOCCOCCn3cc(CCC(=O)NCCCC[C@H]4NC(=O)[C@H](CCC(=O)O)NC(=O)[C@@H]5CCCN5C(=O)[C@H](CC(C)(C)C)NC(=O)[C@@H](NC(C)=O)CSCCC(=O)N5CN6CN(C5)C(=O)CCSC[C@H](NC(=O)[C@H](Cc5ccc(O)cc5)NC(=O)[C@@H]5CCCN5C4=O)C(=O)N[C@@H](Cc4ccccc4)C(=O)N[C@@H](C)C(=O)N[C@@H](CC(=O)O)C(=O)N4CCC[C@H]4C(=O)N[C@@H](Cc4ccc(O)cc4)C(=O)N[C@@H](CCCC)C(=O)N[C@H](C(=O)N[C@@H](C)C(N)=O)CSCCC6=O)nn3)(COCCC(=O)NCCOCCOCCOCCOCCOCCOCCOCCOCCOCCOCCn3cc(CCC(=O)NCCCC[C@H]4NC(=O)[C@H](CCC(=O)O)NC(=O)[C@@H]5CCCN5C(=O)[C@H](CC(C)(C)C)NC(=O)[C@@H](NC(C)=O)CSCCC(=O)N5CN6CN(C5)C(=O)CCSC[C@H](NC(=O)[C@H](Cc5ccc(O)cc5)NC(=O)[C@@H]5CCCN5C4=O)C(=O)N[C@@H](Cc4ccccc4)C(=O)N[C@@H](C)C(=O)N[C@@H](CC(=O)O)C(=O)N4CCC[C@H]4C(=O)N[C@@H](Cc4ccc(O)cc4)C(=O)N[C@@H](CCCC)C(=O)N[C@H](C(=O)N[C@@H](C)C(N)=O)CSCCC6=O)nn3)COCCC(=O)NCCOCCOCCOCCOCCOCCOCCOCCOCCOCCOCCn3cc(CCC(=O)NCCC(=O)N[C@H]4CSCCC(=O)N5CN6CN(C5)C(=O)CCSC[C@H](NC(=O)[C@@H](CC(=O)O)NC(=O)[C@H](Cc5cccc7ccccc57)NC(=O)[C@@H]5CCCN5C4=O)C(=O)N[C@@H](CCSC)C(=O)N[C@@H](CCCCNC(=N)N)C(=O)N[C@@H](CC(=O)O)C(=O)N[C@@H](Cc4c[nH]c5ccccc45)C(=O)N[C@@H](CO)C(=O)N[C@@H]([C@@H](C)O)C(=O)N4CCC[C@H]4C(=O)N4C[C@H](O)C[C@H]4C(=O)N[C@@H](Cc4c[nH]c5ccccc45)C(=O)N[C@H](C(N)=O)CSCCC6=O)nn3)nn1)C(=O)N1CCC[C@H]1C(=O)N[C@@H](Cc1ccc(O)cc1)C(=O)N2 — Emax (Tumor necrosis factor receptor superfamily member 9/Nectin-4; reporter gene, agonist, luciferase reporter; CD137 Jurkat reporter with HT-1376; 6 h, geometric mean; baseline: wells without compound): 51 fold
CC(C)=CC1C(C(=O)OCc2coc(Cc3ccccc3)c2)C1(C)C (stereo not drawn) — BCRP ATPase activity (ABCG2; inhibition, inhibitor; 0.03 to 100 µM, with: sulfasalazine 10 µM): inhibited
Cc1cccc(C)c1OCC(=O)N[C@@H](Cc1ccccc1)[C@@H](O)C[C@H](Cc1ccccc1)NC(=O)[C@H](C(C)C)N1CCCNC1=O — inhibition (ABCG2; transport, inhibitor; 100 µM, 5 (unit not given), pH 7, with: CCK-8): 79.6%
CCCC[C@@H]1NC(=O)[C@H](Cc2ccc(O)cc2)NC(=O)[C@@H]2CCCN2C(=O)[C@H](CC(=O)O)NC(=O)[C@H](C)NC(=O)[C@H](Cc2ccccc2)NC(=O)[C@@H]2CSCCC(=O)N3CN(CN(C3)C(=O)CCSC[C@@H](C(=O)N[C@@H](C)C(N)=O)NC1=O)C(=O)CCSC[C@H](NC(C)=O)C(=O)N[C@@H](CC(C)(C)C)C(=O)N1CCC[C@H]1C(=O)N[C@@H](CCC(=O)O)C(=O)N[C@H](CCCCNC(=O)CCc1cn(CCOCCOCCOCCOCCOCCC(=O)NCCCC[C@H]3NC(=O)[C@H](Cc4cccc5ccccc45)NC(=O)[C@@H]4CCCN4C(=O)[C@@H](NC(C)=O)CSCCC(=O)N4CN5CN(C4)C(=O)CCSC[C@H](NC3=O)C(=O)N[C@@H](CCSC)C(=O)N[C@@H](CCCCNC(=N)N)C(=O)N[C@@H](Cc3c[nH]cn3)C(=O)N[C@@H](Cc3c[nH]c4ccccc34)C(=O)N[C@@H](CO)C(=O)N[C@@H]([C@@H](C)O)C(=O)N3CCC[C@H]3C(=O)N3C[C@H](O)C[C@H]3C(=O)N[C@@H](Cc3c[nH]c4ccccc34)C(=O)N[C@H](C(N)=O)CSCCC5=O)nn1)C(=O)N1CCC[C@H]1C(=O)N[C@@H](Cc1ccc(O)cc1)C(=O)N2 — Emax (Tumor necrosis factor receptor superfamily member 9/Nectin-4; reporter gene, agonist, luciferase reporter; CD137 Jurkat reporter with HT-1376; 6 h, geometric mean; baseline: wells without compound): 39 fold
COc1ccc(Nc2nc(Nc3ccc(OC)cc3OC)nc(N3CCOCC3)n2)c(OC)c1 — cytotoxicity efficacy (Vero-E6; CellTiter-Glo ATP; concentration not given, 72 h, retest 8-point duplicates; baseline: DMSO 0%, hyamine -100%, more negative, more toxic): -17.1%
Cn1nccc1[C@]1(CNC(=O)c2ccc(F)c(F)c2-c2ccc(C(F)(F)F)cc2)NC(=O)NC1=O — lipophilic ligand efficiency (A disintegrin and metalloproteinase with thrombospondin motifs 7 (Homo sapiens, UniProt Q9UKP4); FRET substrate): 5.9
CC1(C)[C@H](C=C(Cl)Cl)[C@H]1C(=O)OCc1cccc(Oc2ccccc2)c1 — enzyme contribution to CLint (human CYP1A2; IVIVE from expressed enzymes; human, liver, in vivo scaled; 0.1 µM, age-specific): 0.08%
CO[C@H]1C[C@@H]2CC[C@@H](C)[C@@](O)(O2)C(=O)C(=O)N2CCCC[C@H]2C(=O)O[C@H]([C@H](C)C[C@@H]2CC[C@@H](OC(=O)NCCOCCOCCOCCOCCOCCOCCOCCOCCC(=O)N3CCc4cc(Cn5nc(-c6ccc7oc(N)nc7c6)c6c(N)ncnc65)ccc4C3)[C@H](OC)C2)C[C@@H](O)[C@H](C)/C=C(\C)[C@@H](O)[C@@H](OC)C(=O)[C@H](C)C[C@H](C)/C=C/C=C/C=C/1C — Mucositis AE leading to dose reduction (patients with advanced solid tumours; intravenous, 1.6 mg/3 mg weekly, grade ≥3): 0%
CCN(CC)CCCC(C)Nc1ccnc2cc(Cl)ccc12 (stereo not drawn) — inhibition (Multidrug and toxin extrusion protein 2 (SLC47A2, Homo sapiens, UniProt Q86VL8); transport, inhibitor; transiently transfected cells; 100 µM, 10 (unit not given), with: thiamine): 126%
CC(C)CC(=O)OC[C@H]1O[C@@](C#N)(c2ccc3c(N)ncnn23)[C@H](O)[C@@H]1O — intrinsic clearance (Cytochrome P450 2C19 (CYP2C19, Homo sapiens, UniProt P33261); metabolic stability; recombinant enzyme; 1 µM): 0 µL/min/pmol
O=C1CCC(N2C(=O)c3ccccc3C2=O)C(=O)N1 (stereo not drawn) — inhibition (ABCG2; transport, inhibitor; 100 µM, 5 (unit not given), pH 7, with: CCK-8): 19%
C=CC1CO1 (stereo not drawn) — Ki (Cytochrome P450 2E1 (Cyp2e1, Mus musculus, UniProt Q05421); 4-nitrophenol oxidation, inhibitor; B6C3F1 mouse, liver microsomes): 29 µM

A few entries again:
CC(C)=CC1C(C(=O)OCc2coc(Cc3ccccc3)c2)C1(C)C (stereo not drawn) — BCRP ATPase activity (ABCG2; inhibition, inhibitor; 0.03 to 100 µM, with: sulfasalazine 10 µM): inhibited
Cc1cccc(C)c1OCC(=O)N[C@@H](Cc1ccccc1)[C@@H](O)C[C@H](Cc1ccccc1)NC(=O)[C@H](C(C)C)N1CCCNC1=O — inhibition (ABCG2; transport, inhibitor; 100 µM, 5 (unit not given), pH 7, with: CCK-8): 79.6%
